Assay results from different studies.
Compare with care: the assays were run in different laboratories. Numbers after ± are the reported error.

| SMILES | tested on | test | test system | conditions | scale | endpoint | value |
| --- | --- | --- | --- | --- | --- | --- | --- |
| CC(=O)N[C@H](CCCCNC(=O)C(C)F)C(=O)N[C@@H](CS)C(=O)N[C@@H](CS)C(=O)N[C@@H](CCC(=O)O)C(=O)N[C@@H](Cc1c[nH]cn1)C(=O)N[C@H](Cc1ccccc1)C(=O)N[C@@H](CCCNC(=N)N)C(=O)N[C@@H](Cc1c[nH]c2ccccc12)C(=O)N[C@@H](CS)C(=O)N[C@@H](CCCNC(=N)N)C(=O)N1CCC[C@H]1C(=O)N[C@H](C(N)=O)C(C)C (stereo partly shown) [fluorine-18 labelled] |  |  | male C57BL/6 mice, B16-F10 tumour, tumour | intravenous, 2 h |  | tumour uptake | 2.12 ± 1.08 %ID/g |
| CN[C@@](C)(C[18F])C(=O)O | DU-145 tumour model |  | host not given, kidney | 15 min, tumour-bearing |  | tracer uptake | 25 %ID/g |
| Cc1ncc2n1-c1ccc(Cl)cc1C(c1ccccc1F)=NC2 |  |  | human CYP3A5*1/*1, serum | geometric mean, with: ketoconazole 200 mg |  | terminal half-life | 5.66 h |
| C/C(=N\C#N)N(C)Cc1ccc(Cl)nc1 | Folsomia candida | reproduction, OECD 232 | LUFA 2.2 soil | 28 days |  | EC20 | 0.06 mg/kg dry soil |
| C[C@H]1CNCCc2ccc(Cl)cc21 |  |  | Sprague-Dawley rat, male, plasma | subcutaneous, 3 mg/kg, 120 min |  | plasma concentration | 32.4 ± 1.07 ng/mL |
| CCCCCCCCCCc1cn(Cc2cn([C@H]3C[C@H](OC(=O)OC[C@H]4O[C@@H](n5cc(C)c(=O)[nH]c5=O)C[C@@H]4N=[N+]=[N-])[C@@H](CO)O3)c(=O)[nH]c2=O)nn1 | MT4 | cell growth or viability |  |  |  | CC50 | 113 µM |
| C[C@@H]1CCO[C@H]2Cn3cc(C(=O)NCc4ccc(F)cc4F)c(=O)c(O)c3C(=O)N12 | hCMEC/D3 |  |  | 5 µM, 1 h, 37 °C |  | intracellular accumulation | 74.8 ± 9.84 pmol/mg protein |
| CCCC(CCC)C(=O)O | Artemia franciscana | body length | larvae | 24 and 48 h, 0.17% DMSO |  | lowest effective concentration | 9.6 mM |
| [123I]c1cncc(OC[C@@H]2CCN2)c1 |  | SPECT | human, cingulate gyrus | intravenous bolus plus infusion, 8.1 mCi | relative to: tissue over plasma | tissue/plasma ratio | 19.4 |
| CSCC[C@@H]1NC(=O)[C@H](CC(=O)O)NC(=O)CNC(=O)[C@H](CCCNC(=N)N)NC(=O)[C@H](C)NC(=O)[C@H](CCC(=O)O)NC(=O)[C@H](CCCNC(=N)N)NC(=O)[C@@H]2CSSC[C@@H]3NC(=O)[C@H](CO)NC(=O)[C@H]([C@@H](C)O)NC(=O)[C@@H]4CCCN4C(=O)[C@H](C)NC(=O)[C@H](Cc4c[nH]c5ccccc45)NC(=O)[C@H](CC(=O)O)NC(=O)CNC(=O)[C@H](CCCNC(=N)N)NC(=O)CNC(=O)[C@H](CCC(N)=O)NC(=O)[C@@H]4CCCN4C(=O)[C@@H](NC(=O)CNC(=O)C(C)F)CSSC[C@H](NC(=O)CNC(=O)[C@H](C)NC(=O)[C@H](CC(C)C)NC(=O)[C@H](CSSC[C@@H](C(=O)NCC(N)=O)NC(=O)[C@H]([C@@H](C)O)NC(=O)[C@H](CCCNC(=N)N)NC(=O)[C@@H]4CCCN4C1=O)NC(=O)[C@H](CC(=O)O)NC(=O)[C@H](CO)NC(=O)[C@H](CC(=O)O)NC(=O)[C@H](CCC(N)=O)NC(=O)[C@H](CO)NC3=O)C(=O)N[C@@H](C(C)C)C(=O)N2 (stereo partly shown) [fluorine-18 labelled] |  |  | nude mice U-87 MG xenograft, liver | intravenous, 0.5 h |  | tissue uptake | 0.68 ± 0.12 %ID/g |
